Published values from different studies.
Parts stem from different laboratories: compare values within a part only. Substitutions count along the parent as printed.

Set 1
Target: Ras GTPase-activating protein-binding protein 1, full length (G3BP1, Homo sapiens, UniProt Q13283)
UniProt Q13283, sequence (whole entry, looked up): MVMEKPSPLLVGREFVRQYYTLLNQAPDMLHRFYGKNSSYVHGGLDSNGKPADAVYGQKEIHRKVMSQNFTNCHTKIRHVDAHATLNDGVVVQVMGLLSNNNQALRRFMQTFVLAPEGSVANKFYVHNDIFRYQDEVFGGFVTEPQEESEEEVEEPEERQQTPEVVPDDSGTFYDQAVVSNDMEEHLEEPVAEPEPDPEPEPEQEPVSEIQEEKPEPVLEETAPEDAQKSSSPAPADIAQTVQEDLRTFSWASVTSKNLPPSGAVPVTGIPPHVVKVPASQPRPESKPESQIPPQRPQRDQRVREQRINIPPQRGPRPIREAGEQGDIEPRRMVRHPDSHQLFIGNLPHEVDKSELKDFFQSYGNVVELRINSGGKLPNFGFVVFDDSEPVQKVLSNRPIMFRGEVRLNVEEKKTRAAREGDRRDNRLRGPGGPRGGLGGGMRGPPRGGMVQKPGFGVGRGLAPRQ
Method: RNA Bind-n-Seq
Form: RNA
Medium: in vitro
Tested at: 200 nM
Setting: whole 134-nt RNA, ends assumed
With: 150 mM LiCl
Reference: input library
Reading: higher = stronger binding
Library: 7-deaza-guanosine replaces G
Constant ends, left off below: GGGAGUUCUACAGUCCGACGAUC … UGGAAUUCUCGGGUGUCAAGG
Oligonucleotide | log2 enrichment
AAGUCCUGUGCUACACAUCGUAUGUACCGAAUCGGGGUGGGGUUUUUGGGGUGGGGAAAGUAUUAUGUUACGCCGUUCGGAUCUGCACUU | 0.121
UUAGGCACUUGUUGGGCUCAUCACCGUUGUGUGGAGUGGUCACUAGGAGUAUGCCAGAUGGAAGAACCAUUGUUAGUGAACGUGGACAAA | -0.397
GGUAAACGCCCUGCAGAAGAUAUGGAAGAGGAACAAGCAUUUAAAAGAUCUAGAAACACUGAUGAGAUGGUUGAAUUACGCAUUCUGCUU | -0.682
UAACUUUAGAGGAGGAUCUGAUGGAUAUGGCAGUGGACGUGGAUUUGGGGAUGGCUAUAAAGGGUAUGGAGGAGGACCUGGAGGUGGCAA | -0.381
UUCUUGCCUAUGCUGUGCGCCACACCAUCCAGGUGUACCGGCUCUCCAAGUACAACACGGAAGAAUUCAUCACAGUCUACCCCACCGACC | 0.968
AGUCCUGUGCUACACAUCGUAUGUACCGAAUCGGAAAAAGGAAAAAAAGGUUUUUGGAAAGUAUUAUGUUACGCCGUUCGGAUCUGCACU | -2.59
UCAAGUCCUGUGCUACACAUCGUAUGUACCGAAUCGGAAGGGAAGGGGAAGGGGAAAGUAUUAUGUUACGCCGUUCGGAUCUGCACUUCC | -0.342
CACAGACAACACGCACCCACACAGACACAGAGGGAAGGGGUUGGGAUGGGUACAGGGUGCACAGCAGGGCGGGGUAGGACCCCAGCCCCU | 0.252
UGGGAGGUGGAUUUUGUUUAUUUUUUUAGCUCAUUUCCAGGGGUGGAAAUUUUUUUUUAAUAUGUGUCAUGAAUAAAGUUGUUUUUGAAA | -0.0241
UUUUCAAAAUAAGGAGCUUCCCAGACCUGUGUUAGAAGGGCAGCAGUCAGAGAGGACCCCAAAUAAUCGCCCUGAUGCCCCUAAGGAGAA | -0.31
GUCCUGUGCUACACAUCGUAUGUACCGAAUCGGGGAAAGGGGAAAAAGGGGAAAGGGGAAAGUAUUAUGUUACGCCGUUCGGAUCUGCAC | 0.473

Set 2
Target: Interferon regulatory factor 7, full length, phosphomimetic (IRF7, Homo sapiens, UniProt Q92985, residues 1-503, S471D/S472D/S475D/S476D/S477D/S483D/S484D/S487D)
Method: protein-binding microarray
Form: double-stranded DNA, one strand shown
Medium: in vitro
Tested at: 2200 nM top
Setting: 60-bp whole probe
With: salmon DNA 0.4 mg/ml
Reference: random background probes
Reading: higher = stronger binding
Constant ends, left off below: GCCTAGCAC … GTCTTGATTCGCTTGACGCTGCTG
Target sequence (chain): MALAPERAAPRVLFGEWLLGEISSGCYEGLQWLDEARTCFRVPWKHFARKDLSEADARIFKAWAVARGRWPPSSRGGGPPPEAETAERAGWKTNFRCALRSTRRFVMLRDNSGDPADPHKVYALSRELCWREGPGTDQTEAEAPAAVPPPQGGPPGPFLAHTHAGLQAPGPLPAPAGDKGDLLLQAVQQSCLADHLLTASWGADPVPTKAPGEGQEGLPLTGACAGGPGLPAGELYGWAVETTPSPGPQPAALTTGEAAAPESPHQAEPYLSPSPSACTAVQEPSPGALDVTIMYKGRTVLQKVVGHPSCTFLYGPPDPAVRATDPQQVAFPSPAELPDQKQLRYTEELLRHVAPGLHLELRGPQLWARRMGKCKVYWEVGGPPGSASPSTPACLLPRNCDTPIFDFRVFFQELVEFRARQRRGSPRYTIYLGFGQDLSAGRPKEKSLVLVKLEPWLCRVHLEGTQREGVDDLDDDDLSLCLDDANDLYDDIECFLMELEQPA
Oligonucleotide | fitted relative affinity [z-score]
TTAGGTCTCCTTTTCCTCTAGTGCTAG | 1.63
TTAGATCTCAGTCTCAATTAGTGCTAG | -0.0648
TTAGAACAGAGACTGGATTAGTGCTAG | -0.883
GACGGTTTCGGCTTCGGGACGTGCTAG | 5.46
TTAGATATCCTTCTCCTTTAGTGCTAG | 1.26
TTGGAACTGAGTCTCGATTAGTGCTAG | 0.143
AACGATTTCAGACTGGAGACGTGCTAG | 0.173
CTGCAGGTAGCAGAGACTTGGTGCTAG | -0.67
TCAATTCTCTTCTTGCAACTGTGCTAG | 1.58
GAAGGACTGGGGACTGGGGACGTGCTA | -0.795
TTAGGTTTCGGGACTGGGTAAGTGCTA | 3.23
TCAATAATGGATATATAACTGTGCTAG | -0.245
GACGGTTCCGGTTGCGGGACGTGCTAG | 0.907
TTGGGTTTCGGGTATCGGTTAGTGCTA | 5.1
GACGATATCAGAATGGAGACGTGCTAG | -0.282
TTAGATCTCAGACTCGATTAGTGCTAG | 0.0814

Set 3
Target: CCNA1, cyclin fold, Cln2 fusion (human)
Method: yeast growth competition, sequencing
Medium: yeast
Setting: weak parent motif
Reference: not given
Reading: higher = stronger binding
Starting sequence: PKN2 docking peptide (human); VSAVRKLDFSDTM; partner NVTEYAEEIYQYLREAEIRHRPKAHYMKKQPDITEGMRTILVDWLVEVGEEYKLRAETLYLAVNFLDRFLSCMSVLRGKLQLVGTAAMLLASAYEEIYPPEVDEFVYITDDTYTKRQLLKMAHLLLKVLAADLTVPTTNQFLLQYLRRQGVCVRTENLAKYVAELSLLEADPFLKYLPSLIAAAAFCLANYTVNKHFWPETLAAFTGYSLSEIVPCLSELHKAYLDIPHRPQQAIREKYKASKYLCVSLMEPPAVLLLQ
Variant | normalised enrichment score
R5W | 0.0222
D8T | 0.152
A3R | 0.328
T12L | 0.574
S2L | 0.941
S10I | 0.23
V4R | 1.75
K6N | 0.198
K6S | 0.422
K6D | 0.0634
T12V | 0.223
T12D | 0.868
R5H | -0.0592
S10H | 0.511
T12M | 1.06
D11E | 0.921
R5M | -0.0829
D8R | 0.169
L7P | 0.0644
F9C | 0.188
S10F | 0.294
D11H | 0.724
D8G | 0.172
V4G | 0.0511
V4Q | 0.849

Set 4
Target: Transcriptional repressor CTCF (CTCF, Homo sapiens, UniProt P49711, residues 1-727, full length assumed)
Method: protein-binding microarray
Form: double-stranded DNA, one strand shown
Medium: in vitro
Tested at: not given
Setting: k-mer, scored over probes, only values ≥0.25
Reading: higher = stronger binding
Construct (chain): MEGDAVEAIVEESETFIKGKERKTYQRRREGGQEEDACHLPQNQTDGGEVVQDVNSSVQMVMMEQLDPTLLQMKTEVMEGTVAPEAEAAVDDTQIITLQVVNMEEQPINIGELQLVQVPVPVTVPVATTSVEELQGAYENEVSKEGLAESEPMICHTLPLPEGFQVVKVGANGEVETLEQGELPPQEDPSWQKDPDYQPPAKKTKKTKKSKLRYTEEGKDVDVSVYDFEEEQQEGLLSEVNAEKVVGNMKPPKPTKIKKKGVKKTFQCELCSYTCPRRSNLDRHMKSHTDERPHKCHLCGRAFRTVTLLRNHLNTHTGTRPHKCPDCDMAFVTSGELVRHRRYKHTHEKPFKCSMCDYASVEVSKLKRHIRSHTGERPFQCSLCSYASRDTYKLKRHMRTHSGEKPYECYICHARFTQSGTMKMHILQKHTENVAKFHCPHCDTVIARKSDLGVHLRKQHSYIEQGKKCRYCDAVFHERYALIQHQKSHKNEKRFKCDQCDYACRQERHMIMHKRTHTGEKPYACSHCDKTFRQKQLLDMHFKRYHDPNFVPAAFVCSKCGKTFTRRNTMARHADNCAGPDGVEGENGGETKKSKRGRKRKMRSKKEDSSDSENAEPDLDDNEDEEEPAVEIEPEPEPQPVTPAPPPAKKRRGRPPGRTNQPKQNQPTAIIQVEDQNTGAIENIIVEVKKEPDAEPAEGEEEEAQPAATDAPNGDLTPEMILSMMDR
Oligonucleotide | E-score
CGCGCAAC | 0.272
AAATTCAT | 0.272
AACGGCCT | 0.319
TAGCGAAA | 0.251
AAACATTT | 0.274
ATAACATC | 0.274
ATACTTTG | 0.268
AATGCGAC | 0.276
ATAAACTA | 0.262
GGCGCAAA | 0.356
GTGAATTA | 0.304
CTCATTAC | 0.31
AAACGGCC | 0.333
ACTATAAA | 0.308
AGCGCTAT | 0.36
GTATTAAA | 0.309
CAATAACA | 0.34
ATATCTTA | 0.285
GCAATACC | 0.269
AATATACC | 0.281
ACAGTACA | 0.251
ATAAACAT | 0.392
ATAATCGC | 0.258
AACACGTA | 0.271
AAATTAAT | 0.262

Set 5
Target: RNA binding protein fox-1 homolog 2, RRM domain, GST-SBP tag (RBFOX2, Homo sapiens, UniProt O43251-10, residues 100-194)
Method: RNA Bind-n-Seq
Form: RNA
Medium: in vitro
Tested at: 365 nM
Setting: natural RNA segment, single round, ends assumed
Reference: no-protein control
Reading: higher = stronger binding
Constant ends, left off below: GGGAGUUCUACAGUCCGACGAUC … UGGAAUUCUCGGGUGCCAA
Construct (chain): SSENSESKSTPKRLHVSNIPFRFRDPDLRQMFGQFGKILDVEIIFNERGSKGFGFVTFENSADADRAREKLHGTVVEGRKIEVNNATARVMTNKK
Oligonucleotide | RBNS enrichment (R)
CAUGGCAAAGACAAUGCUGACACCACUCCACUGUGAGAGCAUAGUCUGGGGACACUGACUCAGCGAGUGUGUUCCAGACUGACUUCCAGGACACUGUGUGACGUCAGCAU | 0.437
GUUUUUACUGUGAAUGUAAAUGGAACAGCAGCCCCAGACCCUUGUCUCUGCCCUAGAGGUGCUACCUGUGACAGGGACCAAGUGCAUGUGUGUUCAGUGUUUGACUCCAA | 0.995
UUGUAUAACUCAGGCGUCUUUGCAUUUCUGCGAAAGAUCAAGGUCUGCAAGGGAAUUCUUGUGUGCUGCUUUCCAUUUGACACCGCAGUUCUGUUCAGCCAUCAGAAGAG | 0.443
UUUUAUGCAUAAGUGCUCAAAUGCAUUUCUCUUUCUUUCGAAACUAGUUAAUCGUUAAGUUGACAAUGAGAGAAUUCUCAAGUUCAUACCUGGCAGCAGGCUCCCACUGA | 0.511
CCAGAAGCUCUCUUCUGCUUCAAAACCUGGGAUCUCUGGCAUUACCCUAUUGGGAUGGACCGCUGGACAGCAAUGCUCGAGUUUGUGAAUUUGGAGAGAUACUCAAAAGA | 0.323
CUUUUUUUUUCUUUUGAGACAGGGUCUUGAUCCGUCGCCCAGGCGGGAGUUGCAGUAGCAUGAUCAGGACUCACUGCAGCCUCUAUCUCCCAGGCUCAAGUAAUCCUCCC | 3.89
GCCACUACCUUGGGUGUCCUUACAGCUCUGCCCUGACCCCAGCCCCUGCCCCUGGACACCUGCUGACAGCUCCCACACAGAACAGUCUGAGGUGAUGCUGGCUACAGCCC | 0.351
GGUUCUUUUUUGAUCUGUUUUGGUCGUCCCUCCAUUCAACUGCAUCUUUUUUUUUUUUAAAAACAAAAUUAAAAGCUAUUCAAUUCUGCAUGGAAUAUAUCUGCUGUCAU | 0.974
CUGCUAUUGAUUAGGUUAUACCUGAGGUACUUAAAAUAUGCAGUAGAAUUAAUGUCUUACUAAAGUGCCACAAUUAUUUUUUAAGUAGCUCAGUACAAAUUAAUUUAAGU | 0.55
UAAAUAUGGAUAUACCAAGUAUUUAAUGACUAAUGCACAUAGAAAUUAAUAUUAAUACAGUGAUCUUUUGAAUGUUCCAGGUAUAGGCUUUUUAAAAAGUGUUAAGAGUG | 0.646
CCAGAGGAUUACCUUAAGAGUCUCUGCAUUAAACUAGAAAAGUUGCACCUAGAAGGGACAGAGGGUGGGGCUACCUGCUAUCAGGCAUGAACAUGUGAAUUGCUGGUUAG | 8.04
CAGAGGCAUAGGUUACCACCCCCACCCCGGCCCGGGAUACUGCCCCCGGCCCAGAUCCUGGCCGUCUCAUCCCAUACUUCUGUGGGGAAUCAGCCUCCUGCCACCCCCCC | 0.357

Excerpt of the above (set 3):
Variant | normalised enrichment score
V4R | 1.75
K6N | 0.198
K6S | 0.422
K6D | 0.0634
T12V | 0.223
T12D | 0.868
R5H | -0.0592
